# Assay results pooled from the literature.
# ± marks the error that the study gave.
# Target: calf thymus DNA
SMILES,test,setting,measurement,value
Cc1ccc(C(C)C)cc1.[Cl-].[Cl][Ru+].[Ru+].c1ccc(-c2cn(CCCCOc3ccccc3-c3nc4ccccc4s3)nn2)nc1,ethidium bromide displacement,"DNA 120 µM, 50% quenching, with: ethidium bromide 8 µM",apparent binding constant,2e+06 M⁻¹
CCN(CC)CCCC(C)Nc1cc[n+]([Ru-]([Cl])[Cl])c2cc(Cl)ccc12.Cc1ccc(C(C)C)cc1 (stereo not shown),thermal denaturation,"0.5 equivalents per DNA, 1 h, pH 7.39, 25 °C, 50 mM NaClO4",delta Tm,4 °C
NC1=N[N+](=Cc2c3ccccc3cc3ccccc23)[Ga-3]23([S]1)([S]C(N)=N[N+]2=Cc1c2ccccc2cc2ccccc12)[S]C(N)=N[N+]3=Cc1c2ccccc2cc2ccccc12,absorbance titration,"concentration not given, band at 254 nm",hypochromism,~15%
CCCCCC(C)NCC(=O)O (stereo not shown),ethidium bromide displacement fluorescence,room temperature,bimolecular quenching rate constant,2.8e+10 M⁻¹ s⁻¹
Cc1c(C)c(C)[c-](C)c1C.[C-]#[O+].[C-]#[O+].[C-]#[O+].[Cl-].[Cl-].[Cl-].[Ir+3].[Re+].c1cnc(-c2ncccn2)nc1,ethidium bromide displacement,"DNA 120 µM, 50% quenching, with: ethidium bromide 8 µM",apparent binding constant,1.6e+06 M⁻¹
O=C1Nc2ccccc2C1=NN=Cc1ccc(F)cc1,UV-Vis titration,"pH 7.2, 298 K",apparent binding constant,20300 M⁻¹
CCCNCC(=O)O,ethidium bromide displacement fluorescence,room temperature,Stern-Volmer constant,420 M⁻¹
[C-]#[O+].[C-]#[O+].[C-]#[O+].[C-]#[O+].[C-]#[O+].[C-]#[O+].[Cl-].[Cl-].[Re+].[Re+].c1cnc(-c2ncccn2)nc1,ethidium bromide displacement,,Stern-Volmer constant,23000 M⁻¹
CCN(CC)CCCC(C)Nc1cc[n+]([Ru-]([OH2+])[OH2+])c2cc(Cl)ccc12.Cc1ccc(C(C)C)cc1.F[B-](F)(F)F.F[B-](F)(F)F (stereo not shown),thermal denaturation,"0.5 equivalents per DNA, 1 h, pH 7.39, 25 °C, 50 mM NaClO4",delta Tm,2.9 °C
COC(=O)c1cnc(-c2cnccn2)cc1C(=O)OC.COC(=O)c1cnc(-c2cnccn2)cc1C(=O)OC.[Cl-].[Cl-].[Cl-].[Cl-].[Cu+2].[Cu+2],ethidium bromide displacement,pH 7.4,Stern-Volmer constant,1670 ± 10 M⁻¹

# Excerpt of the above:
SMILES,test,setting,measurement,value
NC1=N[N+](=Cc2c3ccccc3cc3ccccc23)[Ga-3]23([S]1)([S]C(N)=N[N+]2=Cc1c2ccccc2cc2ccccc12)[S]C(N)=N[N+]3=Cc1c2ccccc2cc2ccccc12,absorbance titration,"concentration not given, band at 254 nm",hypochromism,~15%
CCCCCC(C)NCC(=O)O (stereo not shown),ethidium bromide displacement fluorescence,room temperature,bimolecular quenching rate constant,2.8e+10 M⁻¹ s⁻¹
